{"data": "Assay results pooled from the literature", "note": "Every numbered part comes from another study and shows a few of its results, in no order. Substitutions count along the parent as printed."}
{"data": "Series 1", "target": "Histone acetyltransferase KAT6A, both winged helices, GST fusion (KAT6A, Homo sapiens, UniProt Q92794, residues 1-181)", "method": "protein binding microarray", "molecule type": "double-stranded DNA, one strand shown", "sample": "in vitro", "tested at": "not given", "setting": "8-mer, flanks averaged, mean of 2 arrays, mostly near background", "reference": "not given", "reading": "higher = stronger binding", "Construct (chain)": "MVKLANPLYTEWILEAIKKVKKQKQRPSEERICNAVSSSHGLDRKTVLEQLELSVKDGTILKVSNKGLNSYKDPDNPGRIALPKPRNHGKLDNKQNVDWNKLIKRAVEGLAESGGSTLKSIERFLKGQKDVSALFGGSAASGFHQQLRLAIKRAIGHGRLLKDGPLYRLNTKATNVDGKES"}
{"Oligonucleotide": "CCAGATCA", "E-score": -0.0643}
{"Oligonucleotide": "GAATAAGC", "E-score": -0.0344}
{"Oligonucleotide": "CTACCTAA", "E-score": -0.0513}
{"Oligonucleotide": "CAGCACCA", "E-score": -0.227}
{"Oligonucleotide": "TGCATTAA", "E-score": 0.00336}
{"Oligonucleotide": "TGCGGGAA", "E-score": 0.263}
{"Oligonucleotide": "AAACTTGT", "E-score": -0.122}
{"Oligonucleotide": "AAAAACTC", "E-score": -0.158}
{"Oligonucleotide": "AATGGTCG", "E-score": -0.0573}
{"Oligonucleotide": "ACGCTAAT", "E-score": 0.155}
{"data": "Series 2", "target": "ABI1, truncated, D143A, DHFR fusion (Arabidopsis thaliana)", "method": "DHFR PCA, deep sequencing", "sample": "yeast", "setting": "methotrexate growth selection, single substitutions", "added": "(+)-ABA 4.8 µM", "reference": "wild-type fitted maximum", "reading": "higher = stronger binding", "starting sequence": "PYL1, truncated, DHFR fusion (Arabidopsis thaliana); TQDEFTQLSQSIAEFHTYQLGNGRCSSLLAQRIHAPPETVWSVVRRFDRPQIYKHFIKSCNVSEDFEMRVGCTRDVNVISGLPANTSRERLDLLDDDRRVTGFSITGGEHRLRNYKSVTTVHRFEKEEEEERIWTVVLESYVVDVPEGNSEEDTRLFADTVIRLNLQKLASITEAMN"}
{"Substitution": "Y141N", "relative binding score": "2.89%"}
{"Substitution": "D97W", "relative binding score": "17.1%"}
{"Substitution": "R90W", "relative binding score": "-2.94%"}
{"Substitution": "T39K", "relative binding score": "67.7%"}
{"Substitution": "C72A", "relative binding score": "85.9%"}
{"Substitution": "S42L", "relative binding score": "28%"}
{"Substitution": "E151G", "relative binding score": "47.8%"}
{"Substitution": "L8I", "relative binding score": "54.6%"}
{"data": "Series 3", "target": "RING finger protein unkempt homolog, zinc fingers 1-6, GST-SBP tag (UNK, Homo sapiens, UniProt Q9C0B0, residues 30-357)", "method": "RNA Bind-n-Seq", "molecule type": "RNA", "sample": "in vitro", "tested at": "not given", "setting": "RNA with constant flanks, human and mouse sites, ends assumed", "reference": "input RNA pool", "reading": "higher = stronger binding", "Construct (chain)": "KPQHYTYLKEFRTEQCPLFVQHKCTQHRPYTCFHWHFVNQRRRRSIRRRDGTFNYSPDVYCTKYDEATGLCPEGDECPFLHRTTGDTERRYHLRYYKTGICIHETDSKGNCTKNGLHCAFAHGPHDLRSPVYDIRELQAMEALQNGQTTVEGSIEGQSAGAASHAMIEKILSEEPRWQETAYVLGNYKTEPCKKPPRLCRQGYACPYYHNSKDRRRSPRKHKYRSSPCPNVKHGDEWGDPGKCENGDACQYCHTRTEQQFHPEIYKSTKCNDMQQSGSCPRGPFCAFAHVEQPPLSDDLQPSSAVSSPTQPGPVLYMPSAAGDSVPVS"}
{"Oligonucleotide": "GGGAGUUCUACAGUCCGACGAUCCUAGCUAGGGACCUAUUUUGUUUGGUUUUCAAAGAAUCAGUUUUUUGUCUUUGUGGAUUUUUCUCAGUUGUUGAUCUCAUUGGCAUUUGAAUUGUAUUUCCUCUCCUACAUGCCUUGUGUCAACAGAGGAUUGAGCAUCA", "bound/input enrichment [ratio]": 1.75}
{"Oligonucleotide": "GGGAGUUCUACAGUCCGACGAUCGGGUUUUCUGCCCCAAAAGACCAACAAGUAGUCACAGCAGUAGAGUACCAAGAGGCUAUUUUAGCCUGCAAAACCCCAAAGAAGACUGUUUCCUCCAGAUUAGAGUGGAAGAAACUGGGUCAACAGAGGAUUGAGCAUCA", "bound/input enrichment [ratio]": 0.331}
{"Oligonucleotide": "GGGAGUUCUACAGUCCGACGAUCAUACUGUGGAUAUUUGUGAAUUGUGUGGUUUGUUUGUUUGUUUUCUUUUAUGUACUGUUGACUAGUUAUGGCACUUACUGAUUAAACUUACACUGCUGCAGAUUGCUGUGUAACAAGCCACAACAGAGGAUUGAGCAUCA", "bound/input enrichment [ratio]": 0.461}
{"Oligonucleotide": "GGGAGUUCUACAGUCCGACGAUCCUUGCAGUGAGGAAAAGAACCAUUAUCGCUCUUGGCCAUCUGGUUAUGAGCUGUGGAAAUAUAGUUUUUGUAGAUCUUAUUGAACAUCUGUUGUCAGAGUUGUCCAAAAAUGAUUCUAUGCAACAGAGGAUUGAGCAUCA", "bound/input enrichment [ratio]": 0.995}
{"Oligonucleotide": "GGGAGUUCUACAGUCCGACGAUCUUUUUUAAGUUUUUUUAACGUCUGCUUUUAGAAGUGGAGCUUUGACAGGGUGUUUGCUCGAUAGAAAGGCAGCCUCUGUCCUUAAGAAGAGAUUGUUACCAAGACUCCAGGCUAGGAGAGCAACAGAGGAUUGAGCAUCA", "bound/input enrichment [ratio]": 1.1}
{"Oligonucleotide": "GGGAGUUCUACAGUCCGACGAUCGUUAAUCGUGAUUCAGAAAAUCUAGCUUCACCAUCUGAAUAUCCAGAAAAUGGAGAGAGAUUUAGUUUCCUAAGCAAACCUGUUGAUGAGAAUCACCAGCAGGAUGGAGAUGAAGAUUCCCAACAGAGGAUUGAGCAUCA", "bound/input enrichment [ratio]": 0.165}
{"Oligonucleotide": "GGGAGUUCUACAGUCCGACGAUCAAAGAACUACUGAGGCAAGGCAGCAAAUUUAGGAGAGACAUUUCAACAAUAUUGAUAGAGUUAGGAUUCCAAAUUAAAAAGAAAACUAAGACAUUAUACAUCAACAAAGCCAAUGUGUGGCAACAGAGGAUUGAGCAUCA", "bound/input enrichment [ratio]": 9.12}
{"Oligonucleotide": "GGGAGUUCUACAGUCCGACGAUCAAGUAUUCCUCGGGAUGUUUUUAUAUAAAUUAUGUUUUGGAAUAGAACAUAAAUGACUUUGAGUUAGGAUAAGGAUGAUAGGAUGGGUGCUGGAGAUGCCCUGCCUUGCUUAUUUGUUUCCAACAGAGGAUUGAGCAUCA", "bound/input enrichment [ratio]": 0.583}
{"Oligonucleotide": "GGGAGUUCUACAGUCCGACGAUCUGGAGUAGGUCUUAGAGUGUAACAGAUUGUUUUCCUGAGUUAUCCUCUAGGUGAGUAUGUUUUAGGACUAAACACCUUUUGCAGAUACUGAAAGUGCCUCCUUUUGUGGUAUACAAAACACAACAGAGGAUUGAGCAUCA", "bound/input enrichment [ratio]": 0.081}
{"Oligonucleotide": "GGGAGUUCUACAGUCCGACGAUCCGCCUGGUGGACAGCAAAGGCUUUGAUGAAUACAUGAAGGAGCUAGGAGUGGGAAUAGCUUUGCGAAAAAUGGGCGCAAUGGCCAAGCCAGAUUGUAUCAUCACUUGUGAUGGUAAAAACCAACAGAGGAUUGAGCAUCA", "bound/input enrichment [ratio]": 0.391}
{"data": "Mixed results"}
{"Substance": "PhoQ, residues 284 288 289 292 302 303 ALASRC", "target": "PhoP, residues 12 14 15 18 19 IQSYL (Escherichia coli, UniProt P23836)", "test": "Sort-seq, item: YFP reporter", "system": "E. coli", "setting": "PhoQ-PhoP variant library, added: 10 µM Mg2+", "scale": "reference: high Mg2+ state, higher = stronger signaling", "quantity": "fold induction", "value": 14.6}
{"note": "A few entries again (series 3):"}
{"Oligonucleotide": "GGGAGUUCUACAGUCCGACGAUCUGGAGUAGGUCUUAGAGUGUAACAGAUUGUUUUCCUGAGUUAUCCUCUAGGUGAGUAUGUUUUAGGACUAAACACCUUUUGCAGAUACUGAAAGUGCCUCCUUUUGUGGUAUACAAAACACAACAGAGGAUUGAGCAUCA", "bound/input enrichment [ratio]": 0.081}
{"Oligonucleotide": "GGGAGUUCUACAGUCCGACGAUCCGCCUGGUGGACAGCAAAGGCUUUGAUGAAUACAUGAAGGAGCUAGGAGUGGGAAUAGCUUUGCGAAAAAUGGGCGCAAUGGCCAAGCCAGAUUGUAUCAUCACUUGUGAUGGUAAAAACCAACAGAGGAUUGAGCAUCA", "bound/input enrichment [ratio]": 0.391}
